Published values collected from several papers.
± gives the spread as reported. Ends that are not written are not given here.
rep main protease: Replicase polyprotein 1ab, main protease (rep, Severe acute respiratory syndrome coronavirus 2, UniProt P0DTD1)
Chain of UniProt Q62976 (whole entry, unmodified, looked up): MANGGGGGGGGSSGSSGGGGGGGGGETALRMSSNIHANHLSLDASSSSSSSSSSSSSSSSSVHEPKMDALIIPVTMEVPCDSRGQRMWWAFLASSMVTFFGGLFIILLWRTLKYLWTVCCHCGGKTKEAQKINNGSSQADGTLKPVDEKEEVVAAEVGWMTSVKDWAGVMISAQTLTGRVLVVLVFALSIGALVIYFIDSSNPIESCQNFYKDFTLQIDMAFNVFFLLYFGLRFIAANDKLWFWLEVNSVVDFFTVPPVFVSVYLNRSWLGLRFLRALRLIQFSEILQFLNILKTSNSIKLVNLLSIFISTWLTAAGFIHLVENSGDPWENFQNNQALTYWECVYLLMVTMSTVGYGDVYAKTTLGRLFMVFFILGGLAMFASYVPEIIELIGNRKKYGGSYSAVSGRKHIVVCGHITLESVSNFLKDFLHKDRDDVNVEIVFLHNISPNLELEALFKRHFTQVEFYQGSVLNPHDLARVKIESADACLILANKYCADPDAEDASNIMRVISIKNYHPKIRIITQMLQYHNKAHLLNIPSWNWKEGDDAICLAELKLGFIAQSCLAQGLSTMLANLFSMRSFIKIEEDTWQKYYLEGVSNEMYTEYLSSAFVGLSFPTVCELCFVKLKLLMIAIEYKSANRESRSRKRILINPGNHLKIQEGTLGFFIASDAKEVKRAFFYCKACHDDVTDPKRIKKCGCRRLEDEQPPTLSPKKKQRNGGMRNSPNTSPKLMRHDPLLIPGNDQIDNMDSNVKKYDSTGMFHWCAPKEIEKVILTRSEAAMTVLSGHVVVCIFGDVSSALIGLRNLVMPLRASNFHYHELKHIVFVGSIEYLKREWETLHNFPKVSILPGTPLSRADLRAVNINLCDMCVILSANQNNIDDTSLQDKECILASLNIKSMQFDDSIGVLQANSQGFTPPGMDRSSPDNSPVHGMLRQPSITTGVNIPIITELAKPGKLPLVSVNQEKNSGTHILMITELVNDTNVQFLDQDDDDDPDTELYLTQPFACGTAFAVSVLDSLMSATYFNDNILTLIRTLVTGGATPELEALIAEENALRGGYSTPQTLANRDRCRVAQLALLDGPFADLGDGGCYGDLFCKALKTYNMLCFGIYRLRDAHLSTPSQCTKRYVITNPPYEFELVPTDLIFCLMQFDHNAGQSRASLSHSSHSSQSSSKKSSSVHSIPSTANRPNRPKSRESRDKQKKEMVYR

Molecule | tested on | assay | test system | setting | scale | measurement | value
COc1cc2cc(c1Cl)N(C)C(=O)C[C@H](OC(=O)[C@H](C)N(C)C(=O)CCS)[C@]1(C)O[C@H]1[C@H](C)[C@@H]1C[C@@](O)(NC(=O)O1)[C@H](OC)/C=C/C=C(\C)C2 | PBMC | cytotoxicity | – | – | – | IC50 | 0.0422 µM
CCOC(=O)CC(SP(=S)(OC)OC)C(=O)OCC (stereo not shown) | ES-D3 | cardiomyocyte differentiation, embryonic stem cell test | – | day 10, exposure from day 3 | 50% inhibition of beating | ID50 | 73.2 µM
BKRF4 fragment P86A (Epstein-Barr virus) | H2A/H2B dimer (Homo sapiens) | ITC | – | 25 °C, NaCl 0.5 M | – | Kd | 4.5 µM
LYENQKLIANQFNSA | human CD4 T cells | AIM | peptide | – | – | responding donors | 7%
CC[C@@]1(O)C(=O)OCc2c1cc1n(c2=O)Cc2c-1nc1cc(F)c(C)c3c1c2[C@@H](NC(=O)CO)CC3 | NCI-H929 | cell proliferation | – | 72 h | – | IC50 | 0.00124 µM
Kaliotoxin | human iPSC-derived microglia | cytokine release, ELISA | – | 2 µM, with: LPS | – | TNF-alpha release | no effect
ITGGIAIAMACLVGL | human CD4 T cells | AIM | peptide | – | – | responding donors | 17%
O=C1CCC(N2C(=O)c3cccc4c(Cc5cnn(C6CCNCC6)c5)ccc2c34)C(=O)N1 (stereo not shown) | human PBMC | cytotoxicity | – | – | – | IC50 | > 10 µM
C[C@@H]1O[C@@H](O[C@H]2CC[C@]3(C=O)[C@H]4CC[C@]5(C)[C@@H](C6=CC(=O)OC6)CC[C@]5(O)[C@@H]4CC[C@]3(O)C2)[C@H](O)[C@H](O)[C@H]1O | MYBPC3 iPSC cardiomyocytes | plate-normalised | – | concentration not given, 24 h, hit retest | – | MyBP-C level | 9.2%
CCc1c2c(nc3ccc(O)cc13)-c1cc3c(c(=O)n1C2)COC(=O)[C@]3(O)CC | PBMC | cytotoxicity | – | – | – | IC50 | 0.0617 µM
FolB (Mycobacterium tuberculosis, UniProt P9WNC5) | Nc1nc2c(c(=O)[nH]1)N=C([C@H](O)[C@H](O)CO)CN2 | steady-state kinetics | – | pH 7, 25 °C | – | kcat | 0.0054 ± 0.0002 s⁻¹
RAMPNMLRIMASLVL | human CD4 T cells | AIM | peptide | – | – | responding donors | 7%
C[C@H]1O[C@@H](O[C@H]2[C@@H](O)C[C@H](O[C@H]3[C@@H](O)C[C@H](O[C@H]4CC[C@@]5(C)[C@H](CC[C@@H]6[C@@H]5CC[C@]5(C)[C@@H](C7=CC(=O)OC7)[C@@H](O)C[C@]65O)C4)O[C@@H]3C)O[C@@H]2C)C[C@H](O)[C@@H]1O | human iPSC-derived cardiomyocytes | MyBP-C/MYH ratio, plate-normalised SD score | – | concentration not given, primary screen | direction not given | activity score | 6.6
QPYRVVVLSFELLHA | human CD4 T cells | AIM | peptide | – | – | responding donors | 7%
CCOP(=S)(OCC)Oc1nc(Cl)c(Cl)cc1Cl | ES-D3 | cardiomyocyte differentiation, embryonic stem cell test | – | day 10, exposure from day 3 | 50% inhibition of beating | ID50 | 117 µM
CN(C)CCCN1c2ccccc2Sc2ccc(Cl)cc21 | A2780cis, cisplatin-resistant | cell viability, neutral red uptake | – | with: UVA 5 J/cm2 | – | IC50 | 4.9 µM
FPRGQGVPINTNSSP | human CD4 T cells | AIM | peptide | – | – | responding donors | 8%

Molecule | tested on | assay | test system | setting | scale | measurement | value
Teneligliptin hydrobromide | rep main protease | enzyme activity, Gaussia luciferase reporter | SARS-CoV-2 | 20 µM | – | inhibition | 2.11%
LPDPSKPSKRSFIED | human CD4 T cells | AIM | peptide | – | – | responding donors | 8%
CN(C)CC[C@H](CSc1ccccc1)Nc1ccc(S(=O)(=O)NC(=O)c2ccc(N3CCN(Cc4ccccc4-c4ccc(Cl)cc4)CC3)cc2)cc1[N+](=O)[O-] | HMEC | – | – | 5 µM, pre-treatment, with: ER stress inducers (brefeldin A, tunicamycin) | – | apoptosis | inhibited
QPLRKLCILHRNPGRCYQKIPAFYYNQKKKQCEGFTWSGCGGNSNRFKTIEECRRTCIRK (dendrotoxin I; ends and bridges not checked; cysteine pairing not given here; sequence looked up) | Kcnma1 (Rattus norvegicus, UniProt Q62976) | blocker, planar bilayer single channel | – | with: BP | baseline: singly occupied channel | ΔΔG‡ dissociation | 1.1 kcal/mol
CC(C)C[C@H](NC(=O)[C@H](CC(=O)O)NC(=O)CNC(=O)[C@H](CCCNC(=N)N)NC(=O)[C@H](CC(C)C)NC(=O)[C@H](CC(N)=O)NC(=O)[C@@H]1CCCN1C(=O)[C@@H](NC(=O)[C@H](C)NC(=O)[C@H](CC(N)=O)NC(=O)CCOCCOCCOCCOCCOCCOCCOCCOCCOCCOCCOCCOCCOCCOCCOCCOCCOCCOCCOCCOCCOCCOCCOCCOCCOCCOCCOCCOCCNC(=O)CCOCCOCCOCCOCCOCCOCCOCCOCCOCCOCCOCCOCCOCCOCCOCCOCCOCCOCCOCCOCCOCCOCCOCCOCCOCCOCCOCCOCCNC(=O)c1ccc(F)cc1)C(C)C)C(=O)N[C@@H](CCC(N)=O)C(=O)N[C@H](C(=O)N[C@@H](CC(C)C)C(=O)N[C@@H](C)C(=O)N[C@@H](CCC(N)=O)C(=O)N[C@@H](CCCCN)C(=O)N[C@H](C(=O)N[C@@H](C)C(=O)N[C@@H](CCCNC(=N)N)C(=O)N[C@H](C(N)=O)[C@@H](C)O)C(C)C)C(C)C [fluorine-18 labelled] | BxPC-3 | – | – | concentration not given, 1 h, pH 7.2, serum-free medium | – | cell-bound radioactivity | 25.8 ± 0.6%
PLIELCVDEAGSKSP | human CD4 T cells | AIM | peptide | – | – | responding donors | 18%
cysH (Mycobacterium tuberculosis, UniProt P9WIK3) | Nc1ncnc2c1ncn2[C@@H]1O[C@H](COP(=O)(O)OS(=O)(=O)O)[C@@H](O)[C@H]1O | steady-state kinetics | – | pH 7.5 | – | kcat/Km | 5500 ± 33.3 M⁻¹ s⁻¹
CC[C@H](C)[C@@H]([C@@H](CC(=O)N1CCC[C@H]1[C@H](OC)[C@@H](C)C(=O)N[C@H](C)[C@@H](O)c1ccccc1)OC)N(C)C(=O)[C@@H](NC(=O)[C@@H](NC)C(C)C)C(C)C | NCI-H929 | cell proliferation | – | 72 h | – | IC50 | 0.000565 µM
CC(C)C[C@H](NC(=O)[C@H](CC(=O)O)NC(=O)CNC(=O)[C@H](CCCNC(=N)N)NC(=O)[C@H](CC(C)C)NC(=O)[C@H](CC(N)=O)NC(=O)[C@@H]1CCCN1C(=O)[C@@H](NC(=O)[C@H](C)NC(=O)[C@H](CC(N)=O)NC(=O)c1ccc(F)cc1)C(C)C)C(=O)N[C@@H](CCC(N)=O)C(=O)N[C@H](C(=O)N[C@@H](CC(C)C)C(=O)N[C@@H](C)C(=O)N[C@@H](CCC(N)=O)C(=O)N[C@@H](CCCCN)C(=O)N[C@H](C(=O)N[C@@H](C)C(=O)N[C@@H](CCCNC(=N)N)C(=O)N[C@H](C(N)=O)[C@@H](C)O)C(C)C)C(C)C [fluorine-18 labelled] | DX3puroβ6 | – | – | concentration not given, 1 h, pH 7.2, serum-free medium | – | cell-bound radioactivity | 5.3 ± 0.8%
Theaflavin 3,3'-digallate | rep main protease | enzyme activity, mKate2 fluorescence reporter | SARS-CoV-2 | 20 µM | – | inhibition | -1.4%
p2o (Trametes ochracea, UniProt Q7ZA32) | CN(C)c1ccc2nc3ccc(N(C)C)c([N+](=O)[O-])c3[s+]c2c1 | steady-state kinetics | – | pH 6.5, 22 °C, apparent | – | kcat | 1.63 ± 0.1 s⁻¹
CCOP(=O)(OCC)Oc1ccc([N+](=O)[O-])cc1 | THP-1 macrophages | 2-AG and PG-G hydrolysis | – | concentration not given, 1 h, with: 2-AG or PG-G 10 µM | – | inhibition | 60 to 80%
PaFS D92A (Diaporthe amygdali) | CC(C)=CCC/C(C)=C/COP(=O)(O)OP(=O)(O)O | steady-state kinetics | – | – | – | Km | 2.1 µM
QYGDCLGDIAARDLI | human CD4 T cells | AIM | peptide | – | – | responding donors | 8%
C[C@]12CC[C@H](O)C[C@H]1CC[C@@H]1[C@@H]2CC[C@]2(C)[C@@H](C3=CC(=O)OC3)CC[C@]12O | MDA-MB-231 | cell migration, scratch wound | – | – | – | IC50 | 0.26 µM
O=C1CCC(N2C(=O)c3cccc4c(Cc5cnn(C6CCN(C(=O)C7(O)CCC7)CC6)c5)ccc2c34)C(=O)N1 (stereo not shown) | human PBMC | cytotoxicity | – | – | – | IC50 | > 10 µM
bavachinin | Spike glycoprotein (Severe acute respiratory syndrome coronavirus 2, UniProt P0DTC2) | biolayer interferometry | – | – | – | Kd | 34.7 µM

A few entries again:
Molecule | tested on | assay | test system | setting | scale | measurement | value
FolB (Mycobacterium tuberculosis, UniProt P9WNC5) | Nc1nc2c(c(=O)[nH]1)N=C([C@H](O)[C@H](O)CO)CN2 | steady-state kinetics | – | pH 7, 25 °C | – | kcat | 0.0054 ± 0.0002 s⁻¹
BKRF4 fragment P86A (Epstein-Barr virus) | H2A/H2B dimer (Homo sapiens) | ITC | – | 25 °C, NaCl 0.5 M | – | Kd | 4.5 µM
CCOP(=S)(OCC)Oc1nc(Cl)c(Cl)cc1Cl | ES-D3 | cardiomyocyte differentiation, embryonic stem cell test | – | day 10, exposure from day 3 | 50% inhibition of beating | ID50 | 117 µM
